Measured values of several laboratories.
“And” joins repeats or separate records; there may be more than shown. ± gives the spread as reported.

`CN(CCc1ccc(Cl)c(Cl)c1)CC(O)COc1ccc(NS(C)(=O)=O)cc1` (stereo not drawn) has an IC50 of 3800 nM (PKD2L1 (Homo sapiens, UniProt Q9P0L9, F514A); ion current).
The Ki of `CCN(CC)C(=O)c1ccc(C(c2cccc(O)c2)N2CC(C)N(Cc3ccccc3)CC2C)cc1` (stereo not drawn) is reported as 0.35 ± 0.15 nM (OPRD1 (Homo sapiens, UniProt P41143, N90S)).
For `CCC[C@H](C(=O)c1ccccc1)N1CCCC1`, the Ki was 2340 nM (SLC6A3 (Homo sapiens, UniProt Q01959, S149A); transporter uptake, inhibitor, radiometric).
With `Cc1cc(C(c2ccc(Cl)cc2)c2ccc(Cl)cc2)sc1C(=O)N[C@@H](CCCNC(=N)N)C(=O)O` the EC50 was 132 nM (C3AR1 (Homo sapiens, UniProt Q16581); β-arrestin-1 recruitment, agonist, NanoBiT).
`O=C(O)CCn1c(=O)oc2cc(Cl)c(Cl)cc21` gave an EC50 of > 100000 nM (ADRB2 (Homo sapiens, UniProt P07550); agonist).
`CC(C)(C)C(=O)OCOP(=O)(OCOC(=O)C(C)(C)C)C1CCCN(O)C1=O` (stereo not drawn) has a CC50 of > 100000 nM (HOP-62).
`CS(C)(=O)=Nc1ccc(-c2ccc(-c3nc4cc(O[C@@H]5CO[C@H]6[C@@H]5OC[C@H]6O)[nH]c4cc3F)cc2)cc1` gave an inhibition of 6% (CSF1R (Homo sapiens, UniProt P07333); enzyme activity, inhibitor; 10 µM).
The IC50 of `CC(C)CC(C(=O)N1CC2(CC1C#N)C(=O)Nc1ccccc12)N(C)C(=O)c1cc2c(F)cc(F)c(F)c2[nH]1` (stereo not drawn) is reported as > 100000 nM (Cathepsin D (CTSD, Homo sapiens, UniProt P07339); enzyme activity, inhibitor).
The viability of `CCn1ccc(-c2cc([C@@H](C)NC(=O)c3cc(OC[C@@H]4CCCN4C)ccc3C)c3ccccc3n2)n1` is reported as 40.3% and 38.7% and 30.1% (Vero E6; 31.25 µM).
The Ki of `CCN(CC)C(=O)[C@@H]1C=C2c3cccc4c3c(cn4C(=O)c3ccco3)C[C@H]2N(C)C1` is reported as 1980 nM and 1990 nM (DRD1 (Homo sapiens, UniProt P21728); ligand displacement, radioligand).
The Ki of `CN(C)[C@H](CNC(=O)/C=C/c1cccc2ccccc12)Cc1ccc(O)cc1` is reported as 11000 nM (CHRM1 (Homo sapiens, UniProt P11229); cell-free assay).
`CCn1ccc(-c2cc([C@@H](C)NC(=O)c3cc(N4CC5CCC(C4)N5C)ccc3C)c3ccccc3n2)n1` gave a viability of 96% and 55.8% and 87.5% (Vero E6; 15.62 µM).
For `C=CC(=O)Nc1ccc(F)c(-c2ncnc3[nH]cc(C(=O)OCC)c23)c1`, the IC50 was 1520 nM (JAK1 (Homo sapiens, UniProt P23458); inhibitor, kinase; with: ATP 100 µM).
`O=S(=O)(c1ccc(-c2ccc3ncnc(Nc4ccc(OCc5cccc(F)c5)c(Cl)c4)c3c2)cc1)N1CCNCC1` has an EC50 of 800 nM (Leishmania major; intracellular amastigote growth, luciferase; RAW264.7 macrophages).
With `COc1ccccc1C(C[N+](=O)[O-])c1c(-c2ccccc2)[nH]c2ccccc12` (stereo not drawn) the EC50 was 580 nM (CNR1 (Homo sapiens, UniProt P21554, I245A); G protein activation, agonist, BRET).
For `COc1cc2c(cc1O)C(CCc1ccc(Cl)cc1)N(C)CC2` (stereo not drawn), the Ki was 1000 nM (ADRA1D (Homo sapiens, UniProt P25100); cell-free assay, radioligand).
`O=C1NC2(CC2)COc2ncc(F)cc2[C@H]2COCCN2c2ccn3ncc1c3n2`: “organ-to-brain weight ratio” 53.9 ± 7.77% (Sprague-Dawley rat, male, spleen; oral, 5 mg/kg/day, 4 weeks, end of treatment).
For `Cc1ccc2c(C(C[N+](=O)[O-])c3cccs3)c(-c3ccccc3)[nH]c2c1` (stereo not drawn), the EC50 was 250 nM (CNR1 (Homo sapiens, UniProt P21554, I169A); G protein activation, agonist, BRET).

For quick reference, copied from above:
`CS(C)(=O)=Nc1ccc(-c2ccc(-c3nc4cc(O[C@@H]5CO[C@H]6[C@@H]5OC[C@H]6O)[nH]c4cc3F)cc2)cc1` gave an inhibition of 6% (CSF1R (Homo sapiens, UniProt P07333); enzyme activity, inhibitor; 10 µM).
The IC50 of `CC(C)CC(C(=O)N1CC2(CC1C#N)C(=O)Nc1ccccc12)N(C)C(=O)c1cc2c(F)cc(F)c(F)c2[nH]1` (stereo not drawn) is reported as > 100000 nM (Cathepsin D (CTSD, Homo sapiens, UniProt P07339); enzyme activity, inhibitor).
